Measured values gathered from unrelated publications.
Every numbered part comes from another study and shows a few of its results, in no order. Substitutions count along the parent as printed.

Study 1 — method: universal PBM; molecule type: double-stranded DNA, one strand shown; matrix: in vitro; concentration: not given; reading: higher = stronger binding
Target: Sal-like protein 4, full length isoform B (SALL4, Homo sapiens, UniProt Q9UJQ4-2, residues 1-616)
Notes: 8-mer, flanks averaged, mean of replicates
Oligonucleotide | E-score
CATCGCCC | -0.274
CAACGAGA | 0.13
AGTTTATC | 0.159
ACTACGAA | 0.065
AGGCGGGA | -0.21
ACGAAGAG | 0.109
ATCCTTTG | -0.0278
CAGCAGCA | -0.212
AGAATAGG | 0.111
ATGCCAAC | 0.0724
AGAACATA | 0.163
AAACGTGC | 0.0045
GACGACAC | -0.0837
CGCCATTA | -0.0975
AGATGACG | 0.0417
GATCGTAC | -0.0404
GCCCGCCA | -0.254
ACAAATGC | 0.192
TGATTTAA | 0.29
CCGCGCCA | -0.213
AGGCACAC | -0.0834
CTATTGCA | 0.196
AAATGCTG | 0.0135
TCTTTGCA | 0.161
CTGTATTA | 0.276

Study 2 — method: RNA Bind-n-Seq; molecule type: RNA; matrix: in vitro; concentration: 365 nM; relative to: no-protein control; reading: higher = stronger binding
Target: RNA binding protein fox-1 homolog 2, RRM domain, GST-SBP tag (RBFOX2, Homo sapiens, UniProt O43251-10, residues 100-194)
Notes: natural RNA segment, single round, ends assumed
Residues (chain): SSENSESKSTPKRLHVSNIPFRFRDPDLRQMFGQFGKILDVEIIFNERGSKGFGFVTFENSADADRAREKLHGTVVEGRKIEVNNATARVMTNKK
Oligonucleotide | RBNS enrichment (R)
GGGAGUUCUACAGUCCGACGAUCGUCGCCUGCCCCCAGCACUCCUCUGUCUCUGCUCUUGCCUGCACCCUUCCUCCUCCUUUGCCUAGGAGGCCUUCUCGCAUUUUCUCUAGCUGAUCAGAAUUUUACCAAAAUGGAAUUCUCGGGUGCCAA | 3
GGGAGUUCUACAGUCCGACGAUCUGCUGCAGAUAGGAUCCUUCCCUUGUCUCCAUUCCUCUCCUCCCAAAGGGAGAGGGGCAAAUGGUUUAGGUACAGGCUUUGGCUAUUAAUGUCAGGCUUGGUGGUGGGAGUGGAAUUCUCGGGUGCCAA | 0.3
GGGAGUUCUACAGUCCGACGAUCAGAUAUUGUGUUAGAAAAAUUUGAAACUAAAAGCUUCCCAAACAAAAUGGGAAACCUUACAGGACAUAAAACAUUAGGCUCGGGUUAGGCACUAAGAUAAAGUCUAGUCCUGGAAUUCUCGGGUGCCAA | 0.574
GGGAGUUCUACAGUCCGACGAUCUCCGCUACAGCCAUACCAGACAGGAACCAAGUGUCCCCGUGUUGGCACCGCUUCCUGGUCUAUUUGCAGAGGUGGUACCCCUCGCUGCCUCCAGGAGAGAGCGCUCCAGGUGGAAUUCUCGGGUGCCAA | 0.333
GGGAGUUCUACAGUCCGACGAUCGCAGAUCCAGGCCUGUGGCUCGGCCCCGCUCAGCCCCAUAGUGGGUGGCAGCAGUGCUCUCUCCUGCCUCCUGCGGACUCAGGUCUCUGGGGCUGCUCACUAGGCCUUGUUGGAAUUCUCGGGUGCCAA | 0.225
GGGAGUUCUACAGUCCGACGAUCAAGCUGCGCGUUGUUCAGGCAGUUUACCCCUACUAGAGAAGAAAGGAAGAAACGCUAGAAGAAAACAGGAGAGAGAGAAAAUUUGUGAAUUGCGGUCGUCAAAACAAAACUGGAAUUCUCGGGUGCCAA | 1.85
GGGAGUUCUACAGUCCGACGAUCAAUUAUUUUUUUAAAAACGUAAUUUGUUUUUAAAAGAUGAGUCUCCAUUCAUUGGCUAAUCCAUACAGCAAAUAUUUGAGUGUUUGUGAUAUGGCAGUAAAAAUGUGAUUUGGAAUUCUCGGGUGCCAA | 0.384
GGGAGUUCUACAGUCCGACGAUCCGUGCAAGCUGCUGUGGGAGGGUAAGCACCCCUCCCAGCACAGAAACCUUUCCUUUGAAUCAAUAAAGUUUUAUGUCGGCCUGAGUGUCUUGUGAGUUUGUGUACAGUCAUGGAAUUCUCGGGUGCCAA | 1.35
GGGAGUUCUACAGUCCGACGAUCUCGGCUUCUGGAGUGAAACAGCAAACCCCAAAUCUUCAAAGUUGGAAGGAACUUUAAAAAUCAUCCGGUCCAAUCUCUUUCCUCUUUCUGCCACCUCCCAAGGCAGAAAUUGGAAUUCUCGGGUGCCAA | 0.411
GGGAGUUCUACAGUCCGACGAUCCAGUCUGAGCCAAGUCCCUCCUGCUGGAGAAAAGCCUGGAACUGCCAAAACAAAAAAACAAAUACAAACAAACCUCGUCACCACGGUCAGGAGGAGGUUCAGACAUUCUGUGGAAUUCUCGGGUGCCAA | 0.574
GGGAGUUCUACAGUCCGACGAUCAAGCACAACACUAAUGUUCGUUUCCUUAGACCUCAGUUCAAGUGCCCCUAUUUAUUUCAAUAAGAACGCACAUAUCCCAGCUGUUUUUUGUUUGUCACCUCUAUUUAGUUUGGAAUUCUCGGGUGCCAA | 3.3
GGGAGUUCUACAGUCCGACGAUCAUCUAACCAUGUGCAAUGUGUCCUUAAUAAGCUUUGAGUAUCUUACAGCUUGCCUUUUUAAUGUUAGUCACAAUGUUUUUGUGGUUUGAAGUUUAGUUUAAUGUUAGUGCUGGAAUUCUCGGGUGCCAA | 0.531

Study 3 — method: DHFR PCA, deep sequencing; matrix: yeast; with: (+)-ABA 17 µM; relative to: wild-type fitted maximum; reading: higher = stronger binding
Target: ABI1, truncated, D143A, DHFR fusion (Arabidopsis thaliana)
Notes: methotrexate growth selection, single substitutions
Starting sequence: PYL1, truncated, DHFR fusion (Arabidopsis thaliana); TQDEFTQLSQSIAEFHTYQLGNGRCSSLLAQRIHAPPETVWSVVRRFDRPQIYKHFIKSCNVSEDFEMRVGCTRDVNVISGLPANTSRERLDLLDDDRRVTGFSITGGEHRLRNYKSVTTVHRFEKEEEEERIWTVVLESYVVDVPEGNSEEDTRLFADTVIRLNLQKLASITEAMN; partner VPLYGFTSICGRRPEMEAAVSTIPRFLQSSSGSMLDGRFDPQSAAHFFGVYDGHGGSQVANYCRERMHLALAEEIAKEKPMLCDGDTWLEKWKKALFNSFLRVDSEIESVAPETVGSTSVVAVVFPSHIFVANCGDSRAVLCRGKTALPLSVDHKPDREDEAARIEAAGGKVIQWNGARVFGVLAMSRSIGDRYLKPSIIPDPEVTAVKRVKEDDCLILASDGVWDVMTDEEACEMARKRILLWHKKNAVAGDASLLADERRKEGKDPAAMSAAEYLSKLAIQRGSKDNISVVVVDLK
Variant | relative binding score
V44H | -14.7%
L164R | 78.9%
A35S | 67.4%
W41T | 5.26%
A35H | -4.76%
V143E | 3.06%
R90G | -5.01%
R90F | -11.1%
R113S | 88.7%
R163Q | 76.2%
D159W | -4.29%
V161D | -3.96%
A35F | 0.851%
S80G | 13.9%
A84Y | 61.9%
T120C | 1.82%
S87M | -1.56%
K58G | 48.2%
F5R | 78.6%
R45G | 8.58%
R123D | 73.9%
V62Q | 7.01%

Study 4 — target: CCNE2, cyclin fold, Cln2 fusion (human); method: yeast growth competition, sequencing; matrix: yeast; notes: strong parent motif; relative to: not given; reading: higher = stronger binding
Starting sequence: WEE1 docking peptide (human); HKTFRKLRLFDTP
Variant | normalised enrichment score
HNTFRKLRLFDTP [K2N] | 0.876
PKTFRKLRLFDTP [H1P] | 0.926
HKTVRKLRLFDTP [F4V] | 0.381
HKMFRKLRLFDTP [T3M] | 1.03
HKTFRNLRLFDTP [K6N] | 0.761
HKTFRKLRLFVTP [D11V] | 0.681
HKTFRKLMLFDTP [R8M] | 0.656
AKTFRKLRLFDTP [H1A] | -0.138
HKTFRKLRLFDQP [T12Q] | -0.0382
HKTFRKLRFFDTP [L9F] | 0.694
HKAFRKLRLFDTP [T3A] | 0.475
HKTFRKLRLFDGP [T12G] | 1.4
HKTFVKLRLFDTP [R5V] | 0.419
HKTFRKNRLFDTP [L7N] | 0.367
HKTFRKPRLFDTP [L7P] | 0.164
HKSFRKLRLFDTP [T3S] | 0.0482
HKVFRKLRLFDTP [T3V] | 2.31
HKTKRKLRLFDTP [F4K] | 0.709
HKTFRDLRLFDTP [K6D] | 1.03
HKTFRYLRLFDTP [K6Y] | 1.82
HKTFRGLRLFDTP [K6G] | 1.06
HKTFRWLRLFDTP [K6W] | 1.49
HKTFRKLRLFYTP [D11Y] | 0.532
HKTFRELRLFDTP [K6E] | 0.691
GKTFRKLRLFDTP [H1G] | -0.0326

Repeated from above (study 1):
Oligonucleotide | E-score
AGAATAGG | 0.111
ACGAAGAG | 0.109
AGAACATA | 0.163
GACGACAC | -0.0837
